Assay results collected from several papers.
A part holds a random share of what one study measured. Changes are numbered by the printed parent chain.

Block 1
Target: Histone acetyltransferase KAT6A, both winged helices, GST fusion (KAT6A, Homo sapiens, UniProt Q92794, residues 1-181)
Method: protein binding microarray
Molecule type: double-stranded DNA, one strand shown
Medium: in vitro
Concentration: not given
Setting: 8-mer, flanks averaged, mean of 2 arrays, mostly near background
Relative to: not given
Reading: higher = stronger binding
Construct (chain): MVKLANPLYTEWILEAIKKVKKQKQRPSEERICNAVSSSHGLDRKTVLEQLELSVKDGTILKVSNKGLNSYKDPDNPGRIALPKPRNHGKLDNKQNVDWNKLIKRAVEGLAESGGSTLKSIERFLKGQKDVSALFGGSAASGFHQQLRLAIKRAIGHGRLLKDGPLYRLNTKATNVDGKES
Sequence	E-score
ACCATGCG	0.112
GATAGCGA	0.0186
CGAAGCGC	0.315
GTTAGCGA	0.118
CCGTAATC	0.187
ACAGAGCT	-0.151
AAATAACC	-0.108

Block 2
Target: CCND1, cyclin fold, Cln2 fusion (human)
Method: yeast growth competition, sequencing
Medium: yeast
Setting: weak parent motif
Relative to: not given
Reading: higher = stronger binding
Starting sequence: SLBP docking peptide (human); ARYKRKLLINDFG; partner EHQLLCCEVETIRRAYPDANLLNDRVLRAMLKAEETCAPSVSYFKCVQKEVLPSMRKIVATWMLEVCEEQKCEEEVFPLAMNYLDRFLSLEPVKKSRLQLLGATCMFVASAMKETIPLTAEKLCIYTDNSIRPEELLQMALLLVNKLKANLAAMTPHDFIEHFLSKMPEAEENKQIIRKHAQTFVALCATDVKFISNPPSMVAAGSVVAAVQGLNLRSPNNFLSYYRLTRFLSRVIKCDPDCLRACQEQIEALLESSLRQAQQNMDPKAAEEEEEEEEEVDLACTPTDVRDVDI
Change	normalised enrichment score
K6H	-0.871
G13E	0.346
K4L	0.727
G13Q	0.0177
A1M	0.221
L8E	0.273
F12E	-0.0418
K6D	-0.328

Block 3
Target: RING finger protein unkempt homolog, zinc fingers 1-6, GST-SBP tag (UNK, Homo sapiens, UniProt Q9C0B0, residues 30-357)
Chain of UniProt Q9C0B0 (30-357, looked up): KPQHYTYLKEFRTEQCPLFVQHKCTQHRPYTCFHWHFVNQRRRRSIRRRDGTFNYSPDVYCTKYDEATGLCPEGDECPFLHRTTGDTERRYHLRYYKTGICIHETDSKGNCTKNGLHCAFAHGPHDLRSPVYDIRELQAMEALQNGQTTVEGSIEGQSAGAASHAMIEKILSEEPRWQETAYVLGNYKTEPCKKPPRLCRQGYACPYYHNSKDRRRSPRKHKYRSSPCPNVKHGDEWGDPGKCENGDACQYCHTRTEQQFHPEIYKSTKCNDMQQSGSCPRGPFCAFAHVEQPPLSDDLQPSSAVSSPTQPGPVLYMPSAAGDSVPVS
Method: RNA Bind-n-Seq
Molecule type: RNA
Medium: in vitro
Concentration: not given
Setting: RNA with constant flanks, human-mouse chimeric sites, ends assumed
Relative to: input RNA pool
Reading: higher = stronger binding
All sequences stand within: GGGAGUUCUACAGUCCGACGAUC … CAACAGAGGAUUGAGCAUCA
Sequence	bound/input enrichment [ratio]
ACUCAGAGAUCCACCUCCCAAAGUGCUGGGAGUAAAGGUGUGGCCACCACACCUAACUUGAUGGAUAUAUAUUUUUUCUCUUUUAUGUCUUCCUGUUCUUCAUCCAGAGAAAGAUUUGUU	0.297
CAGGGCAUCAUCUCUCGUGCUGUUAGACACCUGUUCAAGAGUAUUGAUGAGAAAAAGCACAUAGCAAUUAAAAACGGGCUGCCCCCUCCUGAAUUCAAAGUGAAUGCCCAGUUCCUAGAG	1.09
GGUGGGGGGUUGUCAUUCGUUUGAGCUGCUGAUUUUCAUGAGUCGCCUUCAAAACUCUCGUGUAGGGUUGACAAUGUGGGGGGGUGGGGGAUCCAGCUUAUUCUUUUAUUUUCAAGUCCA	0.705
AUUCCGAUUAUGGACACCGGUGAAAACCCAGAGGUUCCCUUCCCCCGGGACAUGAUCGACUUAGAGGCCAAUUUCGAGAAGAUUGAAAAUGAACUGAAGGAAAUCAACACAAACCAGGAA	0.133
AAAGAUCUACUGAGGCAAGGCAGCAAAUUUAGGAGAGACAUUUCAACAAUAUUGAUAGAGUUAGGAUUCCAAAUUAAAAAAAAAACUAAGACAUUAUACAUCAACAAAGCCAAUGUGUGG	7.1
AUAAAAGCCAUGUUGAGUGGUCCAGGUCAGUUUGCUGAGAAUGAAACCAACGAGGUCAAUUUUAGAGAGAUCCCCUCACAUGUGCUAUCAAAAGUGUGCAUGUAUUUUACCUACAAGGUC	0.199
GCAGGAUCUUCUAAGUACCAGUGGGACAUUAUGAAAUCCCUUGGGCUCUCUGAUGACGACAUAGUGAAGUUUUCUGAAGCAGAGCACUGGCUUGAUUAUUUCCCGCCACUGGCUAUUCAG	0.113

Other studies, line by line
Molecule	target	assay	system	conditions	how to read	endpoint	value
PhoQ, residues 284 288 289 292 302 303 NLSRDF	PhoP, residues 12 14 15 18 19 SYFRT (Escherichia coli, UniProt P23836)	Sort-seq, measured: YFP reporter	E. coli	PhoQ-PhoP variant library, added: 10 µM Mg2+	relative to: high Mg2+ state, higher = stronger signaling	fold induction	6.97
